# Measured values collected from several papers.
# Parts stem from different laboratories: compare values within a part only.

# Study 1 — technique: protein binding microarray; form: double-stranded DNA, one strand shown; matrix: in vitro; tested at: not given; baseline: not given; direction: higher = stronger binding
# Target: Histone acetyltransferase KAT6A, both winged helices, GST fusion (KAT6A, Homo sapiens, UniProt Q92794, residues 1-181)
# Notes: 8-mer, flanks averaged, mean of 2 arrays, mostly near background
# Construct (chain): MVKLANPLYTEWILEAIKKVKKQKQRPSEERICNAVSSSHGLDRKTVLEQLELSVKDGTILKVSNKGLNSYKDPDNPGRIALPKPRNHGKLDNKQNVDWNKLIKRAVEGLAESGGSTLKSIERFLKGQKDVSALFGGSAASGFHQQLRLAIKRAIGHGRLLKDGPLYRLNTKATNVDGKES
Oligonucleotide,E-score
AACGTGGA,-0.0178
GTACGGCA,0.304
TAACGATA,-0.0311
TCCAATCA,-0.0234
TGCATGAA,-0.0453
AACACTAG,-0.0676
CCTTGTGC,-0.0791
ACTATCGA,0.07
AACACGGC,0.249
CGTCCGCC,0.258
GAAGAGAC,0.0308
AAGGGGAG,-0.196
TCCCCGCA,0.185
CGCGAACA,0.172
AACGGTCG,0.175
AATACTTC,-0.213
AGAGAGAC,-0.177
TCCCACAA,-0.138
GAAAAGGC,-0.0123
CGCGGAGA,0.296
AGTGAAGA,-0.0531
ATCCATCA,-0.158
AATGCTTA,-0.162
TCAAGAGA,-0.154

# Study 2 — technique: protein-binding microarray; form: double-stranded DNA, one strand shown; matrix: in vitro; tested at: not given; direction: higher = stronger binding
# Target: Myc proto-oncogene protein, bHLH-zipper, MAX partner unstated (MYC, Homo sapiens, UniProt P01106, residues 368-449)
# Sequence of UniProt P01106 (368-449, looked up): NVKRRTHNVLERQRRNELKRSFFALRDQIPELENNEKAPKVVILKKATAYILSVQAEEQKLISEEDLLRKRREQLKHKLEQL
# Notes: k-mer, scored over probes, only values ≥0.25
Oligonucleotide,E-score
CACGCTAC,0.373
ACCTCATG,0.459
ACCCGCGT,0.256
ATCGTGTG,0.273
ACATGGCA,0.403
CATGTCAG,0.282
CTCCACGA,0.32
CATGGTTC,0.322
GCATGCCC,0.378
GGACGCAC,0.289
GTGTCCCA,0.277
AAACGCGT,0.292
ATGTGCTC,0.388
ACCGCACG,0.36
AAAATGTG,0.292
CATGGGCG,0.355
GTGGCAAA,0.269
AGAGCACG,0.354
ACATGAGG,0.426
AGGCATGC,0.375
CCCGTCCC,0.283
ATGACATG,0.311

# Study 3 — technique: RNA Bind-n-Seq; form: RNA; matrix: in vitro; tested at: not given; baseline: input RNA pool; direction: higher = stronger binding
# Target: RING finger protein unkempt homolog, zinc fingers 1-6, GST-SBP tag (UNK, Homo sapiens, UniProt Q9C0B0, residues 30-357)
# Notes: RNA with constant flanks, human and mouse sites, ends assumed
# Constant ends, left off below: GGGAGUUCUACAGUCCGACGAUC … CAACAGAGGAUUGAGCAUCA
# Construct (chain): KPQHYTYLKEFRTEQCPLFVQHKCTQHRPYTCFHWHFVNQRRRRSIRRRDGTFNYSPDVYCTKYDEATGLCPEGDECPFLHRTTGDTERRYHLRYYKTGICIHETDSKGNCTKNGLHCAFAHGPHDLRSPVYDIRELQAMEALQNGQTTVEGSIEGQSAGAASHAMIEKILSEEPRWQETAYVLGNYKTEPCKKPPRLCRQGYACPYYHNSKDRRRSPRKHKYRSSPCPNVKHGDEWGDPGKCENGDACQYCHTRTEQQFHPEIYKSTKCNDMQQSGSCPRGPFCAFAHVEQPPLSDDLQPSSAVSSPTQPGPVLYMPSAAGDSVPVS
Oligonucleotide,bound/input enrichment [ratio]
AACACGACAAAUCGAGGAACGGAAAAAACAGCUGAGCUUCAUCAGCCCCCCUGCACCUCAGCCAAAGACACCUUCUUCUUCCCAACCAGAGCGACUUCCCAUCGGCAACACUAUUCAGCC,0.348
AAUACUGAAAAUAAGCUCCUGUUACAGCAGAGAUCAGAUGCUAAAAUUACCUUUCCAGGUUGUUUCACCAAUAGUUGCUGUAGUCAUCCAUUAAGUAACCCAGGCGAGCUGGAAGAGAAC,0.453
GAACUGGUGGAAGCUAUGUAUGGCAAACUCAGCAACCAGGAAAGGAUCACACUGUUAGACAUAGUGAUAGCCAAGCUAGUGGGUGAGGAGCAGCUGACAAAGGAUGACAUCUCUAUCUUU,0.262
AGCGCAUACCUGUUCCUCUUCUCAUUCUCUCCCCGCCGCCUGUUUCCUCACCUUCUCUCCCCUUUCCAUGCCGUCCAUGAUCCCCACCCCAUGUGUUUUAAAAAGGCAGUAGCCUUUGCA,1.09
GAAGAUGGGCCUCCAGAGCUCCUGUUUAUUCAUGGAGGGCACACUGCCAAGAUUUCUGACUUCAGCUGGAAUCCCAAUGAACCUUGGGUCAUUUGCUCUGUGUCUGAAGAUAACAUCAUG,0.172
CGCCGUGGUGGCCGUUAAACGGUCUCAGAGCGGAGCUAUCGGUUGUCUGCGGCCGUAGUGAGCUUUGCUUCGUUUCCUGAAGAUGGAGGGUCCUUUGUCCGUGUUCGGGGACCGCAGCAC,0.0654
UAUAGCACUGAAUAAAUGAUGCAAGUUGUCAAUGGAUGAGUGAUCAACUAAUAGCUCUGCUAGUAAUUGAUUUAUUUUUCUUCAAUAAAGUUGCAUAAACCAAUGAGUUAGCUGCCUGGA,0.721
GACAUGCUGUACACUGAGACAGACUUGGAAGAAAGCAUGGACAAAAUCGAAACCAUCAAUUUUCAUGAAGUUAAGGAAGUUGCAGGAAUCAAGUUCUGGUGUUACCAUGCCGGCCACGUC,0.141
UAUUACGUAUUGUAGAAGGCCAUUGUUAACAAGAGUCUCCUGCUAUGAACCUGUUUGCAUUUUAGAAUCAGAGAAACUUUUAAUUUAUAACCUUUUAAGAAUCGAGGUCUUCAGCUCUGA,2.68
UGGCUCUGCUGUCCCUUCCGUGAUGUCGUUUUUUGGGUUUUUUUUUUUUUUGGGAGAGUCCCCGUCCUGUACCUGCAUCUAGCCCUGAGGGUGGGCAAGGGUCUCCUAGUCAUCAGGCCA,0.184
AAUAUCAGUGUUGGACGUUAAUGCCCACUUUUCUUAUUCUUACUCAGCCCCUUUUCCUCCCUUAGGAGCAUUGGUCCUCUGUUGUCCAUUUUUAUCACCAGAUGUUUUCCACUGAAGCAU,2.52

# Study 4 — target: Sox, HMG box (Pigoraptor chileana); technique: Spec-seq; form: double-stranded DNA, one strand shown; matrix: in vitro; tested at: not given; notes: whole probe, mean of replicates; baseline: not given; direction: lower = stronger binding; constant ends, left off below: GAGTCGTCTCGTCAGCAC … CCGTAGAGCACTCAGGTC
# Residues (chain): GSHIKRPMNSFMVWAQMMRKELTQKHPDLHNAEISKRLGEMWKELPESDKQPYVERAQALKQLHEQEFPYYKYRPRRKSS
Oligonucleotide,relative binding energy [ln ratio]
CATATGT,-0.0833
CATTTGG,0.591
CATACTA,-0.226
GCTAGTT,0.284
CATTGAT,-0.842
TGGCGTT,0.788
TGACGTT,0.561
CATACGA,0.157
CATCGGC,0.426
CATGTCC,0.811
AACAGTT,-1.53
CATGATT,0.499
AGCTGTT,-0.887
TTGTGTT,-2.07
CAGTGTT,-0.588
TAGTGTT,-0.754
CATCATC,0.444

# Study 5 — technique: protein-binding microarray; form: double-stranded DNA, one strand shown; matrix: in vitro; tested at: 940 nM top; notes: 60-bp whole probe; together with: salmon DNA 0.4 mg/ml; baseline: random background probes; direction: higher = stronger binding; constant ends, left off below: GCCTAGCAC … GTCTTGATTCGCTTGACGCTGCTG
# Target: Interferon regulatory factor 5, full length, phosphomimetic (IRF5, Homo sapiens, UniProt Q13568-2, residues 1-514, S451D/S453D/S456D/S462D)
Oligonucleotide,fitted relative affinity
GACGATTTCGGGTATGGAGACGTGCTA,0.732 z-score
TTAGATTTCAGTCTCGATAAGTGCTAG,3.67 z-score
GACGATTTCGGGACTGGAAACGTGCTA,-0.00675 z-score
CAGGTTCTCTTTTATTTTTTGTGCTAG,1.86 z-score
CTGATTTTGCTTTCATTTATGTGCTAG,1.87 z-score
GCAGGAGAGACAGAAGTTATGTGCTAG,-0.797 z-score
TTAAAACTGAGTCTCGATTAGTGCTAG,2.85 z-score
TTAGGTTTAGGTCTCGGTTAGTGCTAG,2.83 z-score
TTCGATCTCAGACTGGATTAGTGCTAG,-0.299 z-score
TTAGGTTTCGGTATCGGATAGTGCTAG,14.7 z-score
GACGGTCTCCTGATCCTGACGTGCTAG,-0.206 z-score
TTAGGTATCCTACTTCTTTAGTGCTAG,0.396 z-score
GAGGATATCGGGTTTCGAGACGTGCTA,1.32 z-score
TCTACTTCTCTTTTGGCTTTGTGCTAG,1.28 z-score
GACAGTTTCGACACTGGGGACGTGCTA,8.86 z-score
GACGGGTTCCTTCTCCTGACGTGCTAG,0.433 z-score
TTAGGAGTGGGGTTTCGGTTAGTGCTA,5.88 z-score
GACGATTCCAGTATCGAGACGTGCTAG,2.25 z-score
GAACATTTCAATTAGAAAAAGTGCTAG,-0.159 z-score
GACGGTTTCCTTCTTCTGACGTGCTAG,2.02 z-score
GACGATTTCGTGACTGGAGACGTGCTA,-0.0834 z-score
GACGGTTTCGGTTCCGTGACGTGCTAG,12.8 z-score
TTAGGTATCCTTTCCCTTTAGTGCTAG,0.576 z-score
GACGGACTGGACTATCGCGACGTGCTA,-0.551 z-score
AACCGCCTCTCCCTTAGACGGTGCTAG,0.5 z-score

# For quick reference, copied from above (study 2):
Oligonucleotide,E-score
ACCTCATG,0.459
ACCCGCGT,0.256
ATCGTGTG,0.273
ACATGGCA,0.403
CATGTCAG,0.282
CTCCACGA,0.32
CATGGTTC,0.322
